Assay results pooled from the literature.
A part holds a random share of what one study measured.

Set 1 — method: aptamer microarray, sandwich; molecule type: DNA with 2'F-ANA; sample: in vitro; tested at: 200 nM; with: Cy3 exosite-II aptamer, 400 nM; direction: higher = stronger binding; oligonucleotide: GGTTGGTGTGGTTGG
Target: Prothrombin, mature alpha-thrombin (F2, Homo sapiens, UniProt P00734)
Notes: whole 15-mer aptamer, many near background
Modification | mean fluorescence intensity [a.u.]
2'F-ANA at 1 5 7 8 9 10 12 13 | 43.1
2'F-ANA at 1 3 5 6 9 10 14 15 | 63.9
2'F-ANA at 6 8 11 12 14 15 | 204
2'F-ANA at 1 4 6 7 8 9 10 11 15 | 50.3
2'F-ANA at 5 6 7 9 10 15 | 50.6
2'F-ANA at 2 6 7 8 10 12 | 180
2'F-ANA at 3 4 5 6 7 9 10 12 13 14 | 107
2'F-ANA at 1 3 4 6 8 9 10 11 12 13 15 | 90.8
2'F-ANA at 1 3 5 8 11 13 | 57.3
2'F-ANA at 3 4 6 13 14 | 244
2'F-ANA at 1 2 5 9 10 11 12 14 15 | 46.5
2'F-ANA at 1 4 5 7 10 12 14 15 | 49
2'F-ANA at 2 6 7 13 14 | 130
2'F-ANA at 3 5 10 11 13 14 15 | 51.1
2'F-ANA at 1 2 3 7 10 11 13 14 | 119
2'F-ANA at 1 3 5 7 8 9 11 12 13 15 | 85.3
2'F-ANA at 2 4 8 10 13 14 15 | 62.2
2'F-ANA at 7 8 9 10 13 14 | 131
2'F-ANA at 1 3 5 6 8 9 10 11 15 | 51.5
2'F-ANA at 2 3 4 5 6 7 12 13 14 15 | 49.5
2'F-ANA at 2 3 6 12 15 | 1010
2'F-ANA at 1 2 3 5 6 7 9 10 11 13 14 15 | 71.2
2'F-ANA at 2 3 7 9 11 13 14 | 391
2'F-ANA at 1 2 4 9 14 15 | 49.2
2'F-ANA at 6 8 9 10 14 15 | 101

Set 2 — method: universal PBM; molecule type: double-stranded DNA, one strand shown; sample: in vitro; tested at: 600 nM; direction: higher = stronger binding
Target: Sal-like protein 4, full length isoform A (SALL4, Homo sapiens, UniProt Q9UJQ4, residues 1-1053)
Chain of UniProt Q9UJQ4 (whole entry, looked up): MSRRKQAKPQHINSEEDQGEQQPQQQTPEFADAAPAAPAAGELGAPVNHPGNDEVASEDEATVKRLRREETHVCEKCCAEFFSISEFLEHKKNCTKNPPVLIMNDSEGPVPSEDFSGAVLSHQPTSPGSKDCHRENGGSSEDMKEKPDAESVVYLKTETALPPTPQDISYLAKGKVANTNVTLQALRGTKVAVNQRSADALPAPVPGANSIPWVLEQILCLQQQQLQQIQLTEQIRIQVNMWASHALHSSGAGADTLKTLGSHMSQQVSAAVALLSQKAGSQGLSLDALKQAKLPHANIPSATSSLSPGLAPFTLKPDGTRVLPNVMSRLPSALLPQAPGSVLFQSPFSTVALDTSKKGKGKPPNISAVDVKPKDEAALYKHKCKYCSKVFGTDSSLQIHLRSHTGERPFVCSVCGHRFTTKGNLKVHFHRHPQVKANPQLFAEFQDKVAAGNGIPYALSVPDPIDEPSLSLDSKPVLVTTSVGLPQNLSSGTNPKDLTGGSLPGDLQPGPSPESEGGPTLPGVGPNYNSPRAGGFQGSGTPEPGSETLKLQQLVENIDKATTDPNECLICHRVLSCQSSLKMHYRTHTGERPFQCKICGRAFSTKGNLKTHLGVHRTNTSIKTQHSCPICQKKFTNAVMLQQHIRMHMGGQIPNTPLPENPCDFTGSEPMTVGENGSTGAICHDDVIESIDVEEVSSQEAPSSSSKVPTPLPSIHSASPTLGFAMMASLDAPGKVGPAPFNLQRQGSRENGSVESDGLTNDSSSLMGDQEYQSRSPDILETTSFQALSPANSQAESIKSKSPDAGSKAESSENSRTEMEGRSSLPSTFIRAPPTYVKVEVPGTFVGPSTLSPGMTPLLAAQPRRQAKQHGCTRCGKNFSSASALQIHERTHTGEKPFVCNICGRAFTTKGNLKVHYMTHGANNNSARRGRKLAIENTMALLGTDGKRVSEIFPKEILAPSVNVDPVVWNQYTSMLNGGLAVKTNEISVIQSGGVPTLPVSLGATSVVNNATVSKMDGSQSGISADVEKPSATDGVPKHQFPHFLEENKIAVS
Notes: 8-mer, flanks averaged, mean of replicates
Oligonucleotide | E-score
AAACTAAC | 0.164
ATACGAAG | 0.199
CAGGAAGA | -0.0635
GACATCCC | -0.267
CAATGGAG | 0.0147
CATAGCCC | -0.258
ATGACTAA | 0.225
CACAGGTG | -0.0785
CCAGTGTC | -0.185
AATCATGG | 0.169
ATGGCATC | 0.0419
AGGGAGTC | -0.191
CGAGCTGC | -0.212
CAGAGAGC | -0.164
CCGCACGA | -0.112
GAGTTGCC | -0.242
AAGAGTAT | 0.27
GTCTACGA | -0.103
GCCGGAAC | -0.171
CCATCTTC | 0.123

Set 3 — method: RNA Bind-n-Seq; molecule type: RNA; sample: in vitro; tested at: 365 nM; relative to: no-protein control; direction: higher = stronger binding
Target: RNA binding protein fox-1 homolog 2, RRM domain, GST-SBP tag (RBFOX2, Homo sapiens, UniProt O43251-10, residues 100-194)
Notes: natural RNA segment, single round, ends assumed
Shared flanks, not repeated: GGGAGUUCUACAGUCCGACGAUC … UGGAAUUCUCGGGUGCCAA
Residues (chain): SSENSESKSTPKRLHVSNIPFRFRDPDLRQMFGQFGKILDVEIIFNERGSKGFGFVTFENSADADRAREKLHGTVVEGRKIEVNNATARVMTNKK
Oligonucleotide | RBNS enrichment (R)
UUAUGAAAACAGAUGCCCCCGUGAAUGCUUACCUGUGAGAUAACCACAACCAGGAAGAACAAAUCUGGGCAUUGAGCAAGCUAUGAGGGUCCCCGGGAGCACACGAACCC | 0.568
CCUCCCGAGCACUGGGAUUAAAGGUGUGCACCACCACUGUCUGGCUCAGGAAAGCUGUUUUUACACUGAACAGCCAGCCUUGCUCUGUAGCAGGUGUGCUCGAGGACUGU | 0.386
UGCUGUGUGACAUUGGGACAACACUUUCCCUCUCUGGACCUCAGUUUCCCUCUGUAUACAAGGAUCAGAUUCUUGCUGUGACCCAAGAACUCCUGAAAUCAUAUAGAAAG | 0.535
UCUAAAUGCCGAUUUGAGUUCGCGACACAAUGUACUGCGUUUUCAUUCUUGUAUUUGACUAUUUAAUCCUUUCUACUUGUCGCUAAAUAUAAUUGUUUCAGUCCUAUGGC | 0.756
UAAAAAAAUGUUUAAAGAUGUCUUCAAGGAAGACUAGAGUCUUUAAAUCACUUAUAGCUAUAUUUUACUACAAAAAUUCUGUAUAAAGAUAUAUUUAAAUAUUUUAGAGA | 0.932
AAACCCAUGUCUGCUUUCAGACAUCCCAGGGUGUUUCUCUCGAACAUGCCAUCUGGUGCCAAAUGAAAAUUCUUAGGAGUGAAUAUUAAUCAUGAAGGUCACAGUUGUGG | 0.273
UUUAUCUUGUUCUUCAGUUAACAUCUGUGUUCUGUGGGGGAGGGAGGGAGUCAUGUGUGUUUGAAGGGAGAAGUCCAUUGAGUCUCUAAUUGACUUUUCUUUCAGCUCCA | 0.33
ACCAAAUCUCAAAGCAAUGAGAAGCAUUCCUAAAUCCCAAAGUGCCCACAUGGGAAAGAGAUAAAAUGUACAAAUUAGAAAAAUGUGGAUAAACAGUCAAACCUUUAUCC | 0.554
AACUACUUGUAGUGAGGGUGCUGUGUGUGCUUUUCUUAAAUAUUUAUUUUUUUCAACAUGCUUUCAACCUGUCAACAAAAACAAAACACACAAAAAAAGGGCAGUGUUUG | 0.583
GAUUCUCUGAAAAUACUUUGCAGUUCCUUGUGUCUUAAAAAAACACAAAAACAAAAACCAGAACUAGUCAGAUUGAAACCAUACUGUUCCUCCAGAGCGGCGUUAGACAG | 0.31
UCCUGAGAGGGGAGGCCUGGUGGCUUAGCCUGGGCAGGUCGUGUCUCCUCCUGACCCCAGUGGCUGCGGUGAGGGGAACCACCCUCCCUUGCUGCACCAGUGGCCAUUAG | 0.277
UCUUGACAGUAUAUUUGAAACUGUAAAUAUGUUUGUGCCUUAAAAGGAGAGAAGAAAGUGUAGAUAGUUAAAAGACUGCAGCUGCUGAAGUUCUGAGCCGGGCAAGUCGA | 1.1

Set 4 — method: RNA Bind-n-Seq; molecule type: RNA; sample: in vitro; tested at: 200 nM; notes: whole 134-nt RNA, ends assumed; with: 150 mM KCl; relative to: input library; direction: higher = stronger binding
Target: Fragile X messenger ribonucleoprotein 1, C-terminal low-complexity region (Fmr1, Mus musculus, UniProt P35922)
Shared flanks, not repeated: GGGAGUUCUACAGUCCGACGAUC … UGGAAUUCUCGGGUGUCAAGG
Oligonucleotide | log2 enrichment
UCCUGUGCUACACAUCGUAUGUACCGAAUCGGGCCCCCGGGGCCCCCGGGGCCCCCGGGAAAGUAUUAUGUUACGCCGUUCGGAUCUGCA | -0.895
UCCCUGAGACGGCGGGCAACAGCAUCGGCAGGAACGCCAUGGCCGUCCCCUCCCAGCUCUUACCUUACCAUCGACCUCACAGACGACACA | 0.529
UCAAGUCCUGUGCUACACAUCGUAUGUACCGAAUCGGCCCGGGCCCGGGCCCGGAAAGUAUUAUGUUACGCCGUUCGGAUCUGCACUUCC | -1.15
GUCCUGUGCUACACAUCGUAUGUACCGAAUCAAACCCCCAAACCCCCAAACCCCCAAAAAAGUAUUAUGUUACGCCGUUCGGAUCUGCAC | -0.377
CAAGUCCUGUGCUACACAUCGUAUGUACCGAAUCGGCCCGGCCCGGGGCCCGGGGAAAGUAUUAUGUUACGCCGUUCGGAUCUGCACUUC | -0.167
UAACUUUAGAGGAGGAUCUGAUGGAUAUGGCAGUGGACGUGGAUUUGGGGAUGGCUAUAAUGGGUAUGGAGGAGGACGUGGAGGUGGCAA | 0.596
GUCCUGUGCUACACAUCGUAUGUACCGAAUCGGGGAGGGGUUUGGGGUUUUUUUGGGGAAAGUAUUAUGUUACGCCGUUCGGAUCUGCAC | 0.479
UGCUGGAGGCAAAAAAUGCCAGCCUGGCGUCGUCCAACAACGACUUGCAGGUGGCCGAGGAGCAGUACCAGAGGCUUAUGGCCAAGGUAG | -2.05
UCAGAGGAAUAUCCUUGACUUCCCCCAGCAUGUUUCCCCCUCCAAGGACAUCCGGACAGCCAGCACAGAGGCCGACAAGAAGCUCUCUGA | -0.196
UCAAGUCCUGUGCUACACAUCGUAUGUACCGAAUCGGCCCGGCCCGGCCCGGGGAAAGUAUUAUGUUACGCCGUUCGGAUCUGCACUUCC | -0.232
GCAGGAAGUAAAAACAAAUGGAAAUGCUUCGGAUAGUGGCAGGGGUGGGGGUUGCUAAGGAAAGGGUGGGAUAGGAGUGGGUAAAGAGUU | 0.257
UCCUGUGCUACACAUCGUAUGUACCGAAUCAAAUUUUUUUAAACCCCCAAACCCCCAAAAAAGUAUUAUGUUACGCCGUUCGGAUCUGCA | -0.226
UCCUGUGCUACACAUCGUAUGUACCGAAUCGGGUUUGGGAAAAAAAGGGUUUUUUUGGGAAAGUAUUAUGUUACGCCGUUCGGAUCUGCA | 0.0226
GCAGGAAGUAAAAACAAAUGGAAAUGCUUCGGAUAGUGGCAGGGGUGGGGCUUGCUAAGGAAAGGGUGGGAUGGGAGUGGGUAAAGAGUU | 0.253

Set 5 — method: RNA Bind-n-Seq; molecule type: RNA; sample: in vitro; tested at: 20 nM; notes: 6-mer, flanks averaged, single round; with: 150 mM KCl; relative to: input library; direction: higher = stronger binding
Target: TAR DNA-binding protein 43, full length, His tag (TARDBP, Homo sapiens, UniProt Q13148, residues 1-414)
Oligonucleotide | 6-mer enrichment (R)
AGUGGC | 1.49
CCAACA | 0.648
AUCAGA | 0.628
CUUCCU | 0.56
GCCUUC | 0.657
CCUAAC | 0.602
CCGCAC | 0.697
CUAACU | 0.581
GGAGUU | 1.3
AGGCUC | 0.754
CGUUUA | 0.582
GCUUAC | 0.63
AUCCAG | 0.68
GACCGU | 0.816
GACGAG | 1.7
AAAUAC | 0.613
CUAGGG | 2.01
CGUAAU | 0.605
UUAGGG | 1.78
GUGAAU | 1.07

Set 6 — method: protein binding microarray; molecule type: double-stranded DNA, one strand shown; sample: in vitro; tested at: not given; relative to: not given; direction: higher = stronger binding
Target: Histone acetyltransferase KAT6A, both winged helices, GST fusion (KAT6A, Homo sapiens, UniProt Q92794, residues 1-181)
Notes: 8-mer, flanks averaged, mean of 2 arrays, mostly near background
Target sequence (chain): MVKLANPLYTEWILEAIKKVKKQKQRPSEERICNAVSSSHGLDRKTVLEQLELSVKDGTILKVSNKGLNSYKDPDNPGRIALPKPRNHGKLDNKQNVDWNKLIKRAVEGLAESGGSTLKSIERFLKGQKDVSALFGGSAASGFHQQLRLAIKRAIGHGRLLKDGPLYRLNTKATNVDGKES
Oligonucleotide | E-score
TGAATGAA | -0.127
CAATCCGA | 0.00775
CGGTCTCC | 0.107
CAACAGGA | -0.121
GCAGCATA | -0.0442
TCGGACCA | 0.0121
AGATAGCT | -0.00127
AACAGGAT | -0.154
ACCTATCG | 0.0193
ATGCCCCC | -0.166
ATAGATAG | -0.0915
GACGTCAA | -0.0173
GGTGTTTA | 0.095
AACGATTG | -0.0197
ATTGTGAG | -0.133
GCACATAA | 0.0135
CTAGAAAG | 0.03
CACCATAC | -0.0616
ACTTGCCA | -0.196
AGGCGCTG | 0.235
GATTTACC | -0.0229
CCCCAATC | -0.237
CCACAAAA | -0.11
AAACCTAT | 0.00245
GTAGGCCA | -0.194

Repeated from above (set 1):
Modification | mean fluorescence intensity [a.u.]
2'F-ANA at 2 6 7 8 10 12 | 180
2'F-ANA at 3 4 5 6 7 9 10 12 13 14 | 107
2'F-ANA at 1 3 4 6 8 9 10 11 12 13 15 | 90.8
2'F-ANA at 1 3 5 8 11 13 | 57.3
2'F-ANA at 3 4 6 13 14 | 244
2'F-ANA at 1 2 5 9 10 11 12 14 15 | 46.5
2'F-ANA at 1 4 5 7 10 12 14 15 | 49
2'F-ANA at 2 6 7 13 14 | 130
2'F-ANA at 3 5 10 11 13 14 15 | 51.1
2'F-ANA at 1 2 3 7 10 11 13 14 | 119
2'F-ANA at 1 3 5 7 8 9 11 12 13 15 | 85.3
2'F-ANA at 2 4 8 10 13 14 15 | 62.2
2'F-ANA at 7 8 9 10 13 14 | 131
2'F-ANA at 1 3 5 6 8 9 10 11 15 | 51.5
2'F-ANA at 2 3 4 5 6 7 12 13 14 15 | 49.5
2'F-ANA at 2 3 6 12 15 | 1010
2'F-ANA at 1 2 3 5 6 7 9 10 11 13 14 15 | 71.2
2'F-ANA at 2 3 7 9 11 13 14 | 391
2'F-ANA at 1 2 4 9 14 15 | 49.2
2'F-ANA at 6 8 9 10 14 15 | 101
